Assay results gathered from unrelated publications.
Numbered parts are unrelated; each lists some results of a single study. Values joined by “and” are separate records of one study, mostly repeats; a detail may differ.
Sequence of UniProt P29376 (whole entry, looked up): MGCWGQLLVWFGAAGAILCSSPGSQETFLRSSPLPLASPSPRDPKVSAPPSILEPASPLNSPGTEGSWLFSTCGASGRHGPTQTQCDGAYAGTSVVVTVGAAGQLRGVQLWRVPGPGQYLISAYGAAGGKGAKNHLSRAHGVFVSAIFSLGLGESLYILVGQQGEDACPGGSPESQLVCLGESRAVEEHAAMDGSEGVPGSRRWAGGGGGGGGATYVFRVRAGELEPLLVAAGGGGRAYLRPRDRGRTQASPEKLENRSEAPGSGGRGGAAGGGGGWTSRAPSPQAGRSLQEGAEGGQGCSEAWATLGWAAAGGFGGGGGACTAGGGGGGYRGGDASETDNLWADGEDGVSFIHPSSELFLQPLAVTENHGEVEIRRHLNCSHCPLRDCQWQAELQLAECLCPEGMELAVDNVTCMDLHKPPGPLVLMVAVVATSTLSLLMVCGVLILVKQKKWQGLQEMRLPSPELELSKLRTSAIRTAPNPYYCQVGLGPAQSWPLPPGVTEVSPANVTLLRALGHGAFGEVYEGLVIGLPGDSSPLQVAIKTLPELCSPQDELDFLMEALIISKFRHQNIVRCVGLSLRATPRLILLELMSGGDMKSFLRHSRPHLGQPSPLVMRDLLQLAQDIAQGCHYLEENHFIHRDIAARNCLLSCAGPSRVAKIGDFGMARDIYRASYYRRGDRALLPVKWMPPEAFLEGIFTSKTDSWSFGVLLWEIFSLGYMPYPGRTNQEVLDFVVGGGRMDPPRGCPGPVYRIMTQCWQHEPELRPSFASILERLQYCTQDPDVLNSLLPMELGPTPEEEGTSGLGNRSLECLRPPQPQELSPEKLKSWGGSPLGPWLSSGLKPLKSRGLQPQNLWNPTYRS
Sequence of UniProt Q86Y07 (whole entry, looked up): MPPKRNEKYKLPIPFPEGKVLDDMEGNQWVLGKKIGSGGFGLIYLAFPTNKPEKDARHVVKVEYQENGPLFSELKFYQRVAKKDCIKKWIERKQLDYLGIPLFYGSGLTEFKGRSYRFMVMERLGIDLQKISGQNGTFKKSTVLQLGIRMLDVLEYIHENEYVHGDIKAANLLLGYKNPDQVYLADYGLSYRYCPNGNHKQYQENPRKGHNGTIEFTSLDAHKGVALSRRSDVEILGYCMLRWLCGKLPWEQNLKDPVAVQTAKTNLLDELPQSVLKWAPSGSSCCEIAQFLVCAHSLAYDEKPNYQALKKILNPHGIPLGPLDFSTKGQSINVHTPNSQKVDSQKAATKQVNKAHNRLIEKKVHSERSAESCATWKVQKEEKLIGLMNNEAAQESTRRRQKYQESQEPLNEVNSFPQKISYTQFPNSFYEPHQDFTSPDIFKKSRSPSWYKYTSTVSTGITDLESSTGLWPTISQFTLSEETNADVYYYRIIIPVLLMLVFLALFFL
Sequence of UniProt P51817 (whole entry, looked up): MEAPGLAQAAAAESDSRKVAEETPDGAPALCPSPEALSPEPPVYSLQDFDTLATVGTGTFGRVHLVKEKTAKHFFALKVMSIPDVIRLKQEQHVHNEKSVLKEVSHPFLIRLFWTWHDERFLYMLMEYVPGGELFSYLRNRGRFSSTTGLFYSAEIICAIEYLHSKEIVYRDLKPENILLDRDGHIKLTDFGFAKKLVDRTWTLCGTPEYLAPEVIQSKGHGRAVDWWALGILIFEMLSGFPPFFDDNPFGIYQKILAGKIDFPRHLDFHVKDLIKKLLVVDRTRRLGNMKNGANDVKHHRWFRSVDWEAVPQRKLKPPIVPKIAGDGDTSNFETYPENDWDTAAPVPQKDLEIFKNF
Sequence of UniProt P19525 (whole entry, looked up): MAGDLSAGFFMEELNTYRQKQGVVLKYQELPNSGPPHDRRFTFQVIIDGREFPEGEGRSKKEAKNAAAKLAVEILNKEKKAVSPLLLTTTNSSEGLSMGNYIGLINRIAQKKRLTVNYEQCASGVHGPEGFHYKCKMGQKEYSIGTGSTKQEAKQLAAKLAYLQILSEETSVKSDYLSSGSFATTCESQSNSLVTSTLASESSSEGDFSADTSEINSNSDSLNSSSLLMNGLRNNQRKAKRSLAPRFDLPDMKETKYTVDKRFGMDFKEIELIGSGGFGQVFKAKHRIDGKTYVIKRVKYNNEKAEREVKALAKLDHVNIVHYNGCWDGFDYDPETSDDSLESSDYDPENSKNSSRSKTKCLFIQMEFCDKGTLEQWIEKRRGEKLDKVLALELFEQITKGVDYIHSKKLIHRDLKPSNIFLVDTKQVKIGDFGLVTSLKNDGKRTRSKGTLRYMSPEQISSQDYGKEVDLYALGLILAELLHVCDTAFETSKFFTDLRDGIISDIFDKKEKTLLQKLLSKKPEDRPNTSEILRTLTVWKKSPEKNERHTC
Sequence of UniProt O43293 (whole entry, looked up): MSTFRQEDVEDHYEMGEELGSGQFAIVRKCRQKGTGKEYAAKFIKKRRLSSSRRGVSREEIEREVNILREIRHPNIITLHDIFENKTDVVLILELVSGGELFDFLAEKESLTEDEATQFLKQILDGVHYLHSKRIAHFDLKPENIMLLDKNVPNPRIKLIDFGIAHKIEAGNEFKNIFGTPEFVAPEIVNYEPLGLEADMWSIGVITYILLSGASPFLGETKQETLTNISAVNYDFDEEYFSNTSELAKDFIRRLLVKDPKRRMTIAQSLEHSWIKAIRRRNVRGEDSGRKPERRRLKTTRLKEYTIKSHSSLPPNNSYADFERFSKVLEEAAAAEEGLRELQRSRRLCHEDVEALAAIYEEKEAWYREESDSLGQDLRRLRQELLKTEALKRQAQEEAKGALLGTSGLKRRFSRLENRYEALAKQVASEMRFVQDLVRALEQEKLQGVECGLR
Sequence of UniProt P49137 (whole entry, looked up): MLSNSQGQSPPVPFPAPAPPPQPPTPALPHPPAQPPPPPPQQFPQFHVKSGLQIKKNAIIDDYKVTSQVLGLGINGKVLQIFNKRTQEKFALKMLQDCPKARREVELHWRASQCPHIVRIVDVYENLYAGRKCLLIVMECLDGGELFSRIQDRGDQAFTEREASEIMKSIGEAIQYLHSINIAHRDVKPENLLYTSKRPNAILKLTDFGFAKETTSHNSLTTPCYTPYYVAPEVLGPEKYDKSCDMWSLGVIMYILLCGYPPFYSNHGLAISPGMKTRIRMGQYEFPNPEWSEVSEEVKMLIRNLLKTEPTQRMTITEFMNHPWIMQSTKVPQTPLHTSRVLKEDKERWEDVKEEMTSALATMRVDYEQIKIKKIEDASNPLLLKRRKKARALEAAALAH
Sequence of UniProt Q13153 (whole entry, looked up): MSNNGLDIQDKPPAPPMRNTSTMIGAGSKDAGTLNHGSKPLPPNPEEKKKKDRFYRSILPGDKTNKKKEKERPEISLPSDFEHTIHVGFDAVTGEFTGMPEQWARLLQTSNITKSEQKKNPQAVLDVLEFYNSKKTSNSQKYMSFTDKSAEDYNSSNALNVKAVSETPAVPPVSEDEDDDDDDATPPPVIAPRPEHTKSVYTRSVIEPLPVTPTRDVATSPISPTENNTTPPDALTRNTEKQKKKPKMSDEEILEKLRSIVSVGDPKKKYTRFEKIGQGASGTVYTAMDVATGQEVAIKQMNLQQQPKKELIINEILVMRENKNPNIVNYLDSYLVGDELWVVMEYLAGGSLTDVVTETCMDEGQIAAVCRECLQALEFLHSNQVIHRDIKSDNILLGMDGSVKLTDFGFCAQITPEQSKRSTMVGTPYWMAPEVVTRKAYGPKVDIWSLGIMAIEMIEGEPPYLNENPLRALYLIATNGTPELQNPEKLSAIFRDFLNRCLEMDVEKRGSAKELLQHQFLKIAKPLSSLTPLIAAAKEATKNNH

Study 1 — read-out: enzyme activity; mode: inhibitor; tested at: 0.5 µM; baseline: control; quantity: remaining activity
Target: Tyrosine-protein kinase Yes (YES1, Homo sapiens, UniProt P07947)
Sequence of UniProt P07947 (whole entry, looked up): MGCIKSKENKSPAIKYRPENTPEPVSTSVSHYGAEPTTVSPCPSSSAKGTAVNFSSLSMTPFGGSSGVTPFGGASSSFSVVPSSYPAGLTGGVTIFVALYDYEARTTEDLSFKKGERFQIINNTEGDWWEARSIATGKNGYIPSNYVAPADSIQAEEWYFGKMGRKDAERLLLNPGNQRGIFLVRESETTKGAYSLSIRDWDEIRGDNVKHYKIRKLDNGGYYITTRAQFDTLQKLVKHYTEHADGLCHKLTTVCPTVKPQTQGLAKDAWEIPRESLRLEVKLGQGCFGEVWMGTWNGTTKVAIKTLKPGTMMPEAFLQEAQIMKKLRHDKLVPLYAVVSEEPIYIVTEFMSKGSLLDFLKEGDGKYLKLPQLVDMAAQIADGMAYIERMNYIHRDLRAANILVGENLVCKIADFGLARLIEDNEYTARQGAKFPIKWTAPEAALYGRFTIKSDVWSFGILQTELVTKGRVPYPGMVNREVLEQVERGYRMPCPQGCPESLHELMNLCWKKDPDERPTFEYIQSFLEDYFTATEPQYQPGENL
N#CC(=C(N)Sc1ccc(N)cc1)c1ccccc1C(F)(F)F: 111%
CC(C)(C)n1nc(Cc2cccc3ccccc23)c2c(N)ncnc21: 18.6%
O=S(=O)(NCCNC/C=C/c1ccc(Br)cc1)c1cccc2cnccc12: 91.6%
Nc1nc(Nc2ccc(S(N)(=O)=O)cc2)nn1C(=O)c1c(F)cccc1F: 50.6%
Nc1ncnc2c1cnn2-c1ccccc1: 93.7%
COc1cc(Nc2c(C#N)cnc3cc(OCCCN4CCN(C)CC4)c(OC)cc23)c(Cl)cc1Cl: 7.29%
Cc1cc(Nc2nc(-c3ccccc3)nc3ccccc23)n[nH]1: 20.4%
CC(=O)c1ccc(N2CCOCC2)cc1O: 100%
Oc1ccc(Nc2nc(-c3ccc(Cl)cc3)cs2)cc1: 99.2%
Cc1ccc(NC2=CC(=O)c3sc(C)nc3C2=O)cc1: 86.7%
CC#CC(=O)Nc1cc2c(Nc3ccc(F)c(Cl)c3)ncnc2cn1: 82.3%

Study 2 — read-out: cell-free assay; method: competition with immobilised ligand; tested at: 1 µM; quantity: remaining binding
Compound: CC(=O)N1CCC(c2ccc(C(=O)NC3=NCCN3)cc2C(F)(F)F)CC1
Tyrosine-protein kinase ABL1, phosphorylated (ABL1, Homo sapiens, UniProt P00519, Y253F): 90%
CDK15 (Homo sapiens, UniProt Q96Q40): 100%
RIOK3 (Homo sapiens, UniProt O14730): 98%
MAPKAPK2 (Homo sapiens, UniProt P49137): 100%
DAPK3 (Homo sapiens, UniProt O43293): 84%
INSRR (Homo sapiens, UniProt P14616): 81%
RIPK4 (Homo sapiens, UniProt P57078): 64%
EIF2AK2 (Homo sapiens, UniProt P19525): 100%
PDGFRB (Homo sapiens, UniProt P09619): 95%
PAK1 (Homo sapiens, UniProt Q13153): 98%
Macrophage colony-stimulating factor 1 receptor, autoinhibited (CSF1R, Homo sapiens, UniProt P07333): 94%
Tyrosine-protein kinase ABL1, phosphorylated (ABL1, Homo sapiens, UniProt P00519): 83%
MKNK1 (Homo sapiens, UniProt Q9BUB5): 100%
FLT3 (Homo sapiens, UniProt P36888, ITD): 100%
DSTYK (Homo sapiens, UniProt Q6XUX3): 74%
CLK2 (Homo sapiens, UniProt P49760): 91%
PRKX (Homo sapiens, UniProt P51817): 100%
EGFR (Homo sapiens, UniProt P00533, del747-752/P753S): 100%
STK32A (Homo sapiens, UniProt Q8WU08): 100%
LTK (Homo sapiens, UniProt P29376): 100%
TNNI3K (Homo sapiens, UniProt Q59H18): 98%
VRK2 (Homo sapiens, UniProt Q86Y07): 100%
IKBKE (Homo sapiens, UniProt Q14164): 71%

Study 3 — read-out: enzyme activity; mode: inhibitor; tested at: 10 µM; quantity: inhibition
Target: Calcium/calmodulin-dependent protein kinase type II subunit alpha (CAMK2A, Homo sapiens, UniProt Q9UQM7)
Sequence of UniProt Q9UQM7 (whole entry, looked up): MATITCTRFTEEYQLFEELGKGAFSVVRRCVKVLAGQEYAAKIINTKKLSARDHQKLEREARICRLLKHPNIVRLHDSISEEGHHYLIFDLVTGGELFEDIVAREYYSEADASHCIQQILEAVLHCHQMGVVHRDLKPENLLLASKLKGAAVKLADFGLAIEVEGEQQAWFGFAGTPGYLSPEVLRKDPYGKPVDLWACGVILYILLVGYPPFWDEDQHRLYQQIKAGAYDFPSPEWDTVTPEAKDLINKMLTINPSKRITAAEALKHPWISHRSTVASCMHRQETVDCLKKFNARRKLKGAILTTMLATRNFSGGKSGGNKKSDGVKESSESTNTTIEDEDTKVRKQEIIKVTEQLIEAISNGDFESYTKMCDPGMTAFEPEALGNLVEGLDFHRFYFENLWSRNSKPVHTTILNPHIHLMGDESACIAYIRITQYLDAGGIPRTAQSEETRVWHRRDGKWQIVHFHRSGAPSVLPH
C=CCc1ccc(OC(C)=O)c(OC)c1: 9%
COc1ccc2nccc(C(=O)O)c2c1: 17%
C/C=C(/C)C(=O)O[C@H]1Cc2cc3ccc(=O)oc3cc2OC1(C)C: 45%
C/C=C(/C)C(=O)O[C@H]1[C@H](O)[C@]2(COC(C)=O)[C@H](O)C[C@]3(C)C(=CC[C@@H]4[C@@]5(C)CC[C@H](O[C@@H]6O[C@H](C(=O)O)[C@@H](O[C@@H]7O[C@H](CO)[C@@H](O)[C@H](O)[C@H]7O)[C@H](O)[C@H]6O[C@@H]6O[C@H](CO)[C@@H](O)[C@H](O)[C@H]6O)[C@](C)(CO)[C@@H]5CC[C@]43C)[C@@H]2CC1(C)C: 16%
COc1cc(-c2cc(=O)c3c(O)cc(O[C@@H]4O[C@H](CO)[C@@H](O)[C@H](O)[C@H]4O[C@@H]4OC[C@](O)(CO)[C@H]4O)cc3o2)ccc1O: 19%
COc1cc2c(CCNC(C)=O)c[nH]c2cc1O: -14%
CC/C=C\C/C=C\C/C=C\C/C=C\C/C=C\CCCC(=O)O: -4%
CSCCC(NC(C)=O)C(=O)O (racemic): -5%
N[C@H](CCSSCC[C@@H](N)C(=O)O)C(=O)O (racemic): 20%
C[C@@H]1O[C@@H](O[C@H]2[C@H](O[C@H]3CC[C@]4(C)[C@H]5CC=C6[C@@H]7CC(C)(C)CC[C@]7(C(=O)O[C@@H]7O[C@H](CO[C@@H]8O[C@H](CO)[C@@H](O[C@@H]9O[C@@H](C)[C@H](O)[C@@H](O)[C@H]9O)[C@H](O)[C@H]8O)[C@@H](O)[C@H](O)[C@H]7O)CC[C@@]6(C)[C@]5(C)CC[C@H]4C3(C)C)OC[C@H](O)[C@@H]2O)[C@H](O)[C@H](O)[C@H]1O: 8%

Study 4 — method: Incucyte 3D growth; tested at: 30 µM; direction: higher = more growth; quantity: spheroid area
SMILES: CC(C)(C(=O)O)[C@H](NC(=O)Cc1cccc(I)c1)c1ccc2oc(=O)[nH]c2c1
PC-9; 84 h: 6.36e+08 a.u. and 6.34e+08 a.u. and 6.31e+08 a.u. and 6.09e+08 a.u. and 6.25e+08 a.u. and 6.32e+08 a.u.
A375; 228.52 h: 1.58e+08 a.u. and 1.84e+08 a.u. and 1.79e+08 a.u. and 1.63e+08 a.u. and 1.52e+08 a.u. and 1.69e+08 a.u.
NCI-H358; 120 h: 5.24e+06 a.u. and 4.26e+06 a.u. and 4.35e+06 a.u.
PC-9; 210 h: 1.74e+09 a.u. and 1.7e+09 a.u. and 1.75e+09 a.u. and 1.81e+09 a.u. and 1.78e+09 a.u. and 1.82e+09 a.u.
PC-9; 66 h: 5.04e+08 a.u. and 5.08e+08 a.u. and 4.85e+08 a.u. and 5.11e+08 a.u. and 4.91e+08 a.u.
PC-9; 240 h: 1.91e+09 a.u. and 1.88e+09 a.u. and 1.89e+09 a.u. and 1.87e+09 a.u. and 1.81e+09 a.u. and 1.84e+09 a.u.
A375; 168.52 h: 1.23e+08 a.u. and 1.14e+08 a.u. and 1.05e+08 a.u. and 1.32e+08 a.u. and 1.24e+08 a.u. and 1.33e+08 a.u.

Some of these lines once more (study 2):
EGFR (Homo sapiens, UniProt P00533, del747-752/P753S): 100%
DAPK3 (Homo sapiens, UniProt O43293): 84%
RIPK4 (Homo sapiens, UniProt P57078): 64%
FLT3 (Homo sapiens, UniProt P36888, ITD): 100%
